Assay results gathered from unrelated publications.
Numbered parts are unrelated; each lists some results of a single study.

Series 1
Target: Prothrombin, mature alpha-thrombin (F2, Homo sapiens, UniProt P00734)
Technique: aptamer microarray, sandwich
Form: DNA with 2'F-ANA
Medium: in vitro
Concentration: 200 nM
Setting: whole 15-mer aptamer, many near background
With: Cy3 exosite-II aptamer, 400 nM
Reading: higher = stronger binding
Sequence: GGTTGGTGTGGTTGG
| Modification | mean fluorescence intensity [a.u.] |
| --- | --- |
| 2'F-ANA at 1 3 5 8 9 11 13 15 | 53.9 |
| 2'F-ANA at 2 3 7 8 11 15 | 906 |
| 2'F-ANA at 1 2 4 10 13 | 45.4 |
| 2'F-ANA at 6 8 12 13 14 | 224 |
| 2'F-ANA at 1 5 8 9 10 12 14 15 | 51.2 |
| 2'F-ANA at 1 2 3 4 6 8 9 10 12 14 | 52.4 |

Series 2
Target: Centromere-binding protein 1, full length, His-tagged (CBF1, Saccharomyces cerevisiae, UniProt P17106, residues 1-351)
UniProt P17106, sequence (whole entry, looked up): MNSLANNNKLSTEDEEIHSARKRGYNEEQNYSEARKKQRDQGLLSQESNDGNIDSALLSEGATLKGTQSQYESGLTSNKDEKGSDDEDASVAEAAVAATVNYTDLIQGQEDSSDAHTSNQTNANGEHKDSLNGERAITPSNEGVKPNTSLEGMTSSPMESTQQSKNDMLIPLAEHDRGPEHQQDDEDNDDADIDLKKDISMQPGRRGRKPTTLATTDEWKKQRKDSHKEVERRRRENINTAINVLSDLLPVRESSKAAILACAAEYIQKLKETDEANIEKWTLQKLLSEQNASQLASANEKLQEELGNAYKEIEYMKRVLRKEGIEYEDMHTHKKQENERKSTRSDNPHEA
Technique: competition protein-binding microarray
Form: double-stranded DNA, one strand shown
Medium: in vitro
Concentration: 2 µM
Setting: whole 60-bp probe, lowest competitor level
With: Pho4 competitor, 0.05 µM
Reading: higher = stronger binding
| Sequence | fluorescence intensity |
| --- | --- |
| GGTGCGAAGTATCACCACGTTTCTTTTTCATCTCTTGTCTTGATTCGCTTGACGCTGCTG | 139 a.u. |
| CGGGGTTAAGTTTGGGGCGTGGGTGGCTTGCAGCAGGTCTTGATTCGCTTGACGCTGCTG | 67.7 a.u. |
| GACCAGCACCGCCGTCACAATGAGTAATGATACCATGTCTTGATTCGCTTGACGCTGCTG | 59.5 a.u. |
| GAAGGTTTGATCCATCACGTGCCAGATTTTATACCGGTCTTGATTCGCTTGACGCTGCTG | 7570 a.u. |
| CTATTCAAAAGGTTCCACGTTGGCTGTCTACTGACTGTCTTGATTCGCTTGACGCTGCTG | 67.8 a.u. |
| CCAGTAGAGTGGTAAAGCGTGCCTACGGCGGTGTTGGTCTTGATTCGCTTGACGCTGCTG | 71.8 a.u. |
| CGGGGTTAAGTTTGTCACTAAACTTGCTTGCAGCAGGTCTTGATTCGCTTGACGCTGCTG | 81 a.u. |

Series 3
Target: Histone acetyltransferase KAT6A, both winged helices, GST fusion (KAT6A, Homo sapiens, UniProt Q92794, residues 1-181)
Technique: protein binding microarray
Form: double-stranded DNA, one strand shown
Medium: in vitro
Concentration: not given
Setting: 8-mer, flanks averaged, mean of 2 arrays, mostly near background
Baseline: not given
Reading: higher = stronger binding
Construct (chain): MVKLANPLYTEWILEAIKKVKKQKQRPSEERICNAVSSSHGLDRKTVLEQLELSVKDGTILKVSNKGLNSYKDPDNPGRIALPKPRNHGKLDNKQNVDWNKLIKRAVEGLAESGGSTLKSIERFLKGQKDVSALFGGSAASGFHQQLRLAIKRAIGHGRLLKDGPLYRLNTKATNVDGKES
| Sequence | E-score |
| --- | --- |
| CACTCACC | -0.153 |
| AATAGAAG | -0.112 |
| ATGGGGTA | -0.229 |
| AAGAGGCC | -0.099 |
| CACAGCTG | -0.252 |
| ACGACAGA | -0.0638 |
| ATAAACCA | -0.0691 |
| ACGTGGAC | 0.0347 |

Further values, each from its own experiment
| Substance | target | test | test system | conditions | scale | endpoint | value |
| --- | --- | --- | --- | --- | --- | --- | --- |
| PhoQ, residues 284 288 289 292 302 303 MLMVEA | PhoP, residues 12 14 15 18 19 YHFSH (Escherichia coli, UniProt P23836) | Sort-seq, measured: YFP reporter | E. coli | PhoQ-PhoP variant library, with: 10 µM Mg2+ | baseline: high Mg2+ state, higher = stronger signaling | fold induction | 3.04 |

Repeated from above (series 3):
| Sequence | E-score |
| --- | --- |
| ACGACAGA | -0.0638 |
| CACTCACC | -0.153 |
